# Experimental data collected from several papers.
# Parts stem from different laboratories: compare values within a part only. Changes are numbered by the printed parent chain.

# Set 1
# Target: CCND1, cyclin fold, Cln2 fusion (human)
# Technique: yeast growth competition, sequencing
# Medium: yeast
# Notes: weak parent motif
# Reference: not given
# Direction: higher = stronger binding
# Starting sequence: LLGL2 docking peptide (human); KSLKKSLRQSFRR
Change,normalised enrichment score
KSLKKSLRQSFRA [R13A],0.324
KSLKKSLRQSFAR [R12A],0.521
KSLAKSLRQSFRR [K4A],1.08
ASLKKSLRQSFRR [K1A],0.375
KSAKKSLRQSFRR [L3A],-0.402
KALKKSLRQSFRR [S2A],0.182
KSLKKSLAQSFRR [R8A],0.65

# Set 2
# Target: Interferon regulatory factor 7, full length, phosphomimetic (IRF7, Homo sapiens, UniProt Q92985, residues 1-503, S101K/S471D/S472D/S475D/S476D/S477D/S483D/S484D/S487D)
# Technique: protein-binding microarray
# Form: double-stranded DNA, one strand shown
# Medium: in vitro
# Tested at: 250 nM
# Notes: 60-bp whole probe
# Together with: salmon DNA 0.4 mg/ml
# Reference: random background probes
# Direction: higher = stronger binding
# All sequences stand within: GCCTAGCAC … GTCTTGATTCGCTTGACGCTGCTG
# Target sequence (chain): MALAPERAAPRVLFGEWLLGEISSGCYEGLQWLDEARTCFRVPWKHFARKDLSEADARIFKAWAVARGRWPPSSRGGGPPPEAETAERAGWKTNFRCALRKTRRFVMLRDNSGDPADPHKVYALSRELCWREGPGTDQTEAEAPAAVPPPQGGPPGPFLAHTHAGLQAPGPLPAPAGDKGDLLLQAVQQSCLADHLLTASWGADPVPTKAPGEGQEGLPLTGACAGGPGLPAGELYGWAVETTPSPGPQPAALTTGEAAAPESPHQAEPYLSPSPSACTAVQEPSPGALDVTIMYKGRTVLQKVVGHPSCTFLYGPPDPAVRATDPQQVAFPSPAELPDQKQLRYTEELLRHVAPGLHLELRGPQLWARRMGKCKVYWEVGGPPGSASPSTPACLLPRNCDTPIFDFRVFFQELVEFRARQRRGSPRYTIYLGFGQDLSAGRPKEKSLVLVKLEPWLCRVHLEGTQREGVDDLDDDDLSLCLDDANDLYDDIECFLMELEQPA
Strand,log fluorescence
TCAATTTTCTTTAACTCACTGTGCTAG,0.437 z-score
GACGGTACCGGACTGGGGACGTGCTAG,-0.0887 z-score
TTAGAACTGGGGTATCGATTCGTGCTA,1.4 z-score
TTAAGTATCCTACTGCTTTAGTGCTAG,0.401 z-score
GACGGTATGGGTTTCGGGACGTGCTAG,1.33 z-score
TTTCTGATCCATTTTGGTTTGTGCTAG,1.06 z-score
GACGGTATCGACTTTCGAGACGTGCTA,1.51 z-score
TCATTTTTCCTAATTGAACTGTGCTAG,2.6 z-score
TCACTTCTCCATTTTTCACTGTGCTAG,1.46 z-score
GACGCACTGCTTATCCTGACGTGCTAG,-0.112 z-score
TTAGGTTCCCGTTTCCTTTAGTGCTAG,4.88 z-score
GACGCTTTCAGTTTCGAGACGTGCTAG,4.72 z-score
TTAGGTTTCCTTTTCCTTAAGTGCTAG,7.64 z-score
CTTTCTCCCAAGTCTTGTTTTGTGCTA,3.32 z-score
TTAGATCTGGGGTATCGATTAGTGCTA,0.339 z-score
GACGATATCAGCCTGGAGACGTGCTAG,-0.638 z-score
TCAGATGCCTTTCTCTTACTGTGCTAG,0.322 z-score
TTAGGTCTAGGTCTCGGTTAGTGCTAG,1.07 z-score
TCAGATTTCAGACTGGATTAGTGCTAG,0.367 z-score
TCACTCATGGCTTTGTAACTGTGCTAG,-0.203 z-score
GACGGTTTCATACTGCTGACGTGCTAG,1.85 z-score
GAGTCTTCTCCTCTAGGTTCGTGCTAG,1.13 z-score
CATCATTTTTCCCTCTGGAAGTGCTAG,0.775 z-score
GCCTCTAGGTTTTCTGGAGACGTGCTA,-0.0523 z-score
GACGGAATGGGGTATCGGGACGTGCTA,-0.47 z-score

# Set 3
# Target: TAR DNA-binding protein 43, full length, His tag (TARDBP, Homo sapiens, UniProt Q13148, residues 1-414)
# Technique: RNA Bind-n-Seq
# Form: RNA
# Medium: in vitro
# Tested at: 20 nM
# Notes: 6-mer, flanks averaged, single round
# Together with: 150 mM KCl
# Reference: input library
# Direction: higher = stronger binding
Strand,6-mer enrichment (R)
CUGAGU,0.809
CUCCGA,0.617
UAGCUG,0.798
GUGAAG,1.67
GGCUUA,0.87
UCCAUA,0.571
GUCUUU,0.635
CGUGAG,1.42
GAGCUC,0.819
AUGCGC,0.869
GUCAAG,0.992
CGGGAG,4.6
AUGGCA,0.859
CCCUGC,0.669
UGCCAG,0.912
GCUUUA,0.632
AUAGAU,0.623
UACCCA,0.623
GGUAGC,1.49
CACGGC,0.917
CGUAGA,0.807
CGUUGA,0.703
ACAGGG,2.37
CCCUUG,0.748
GCCCUC,0.647

# Set 4
# Target: Prothrombin, mature alpha-thrombin (F2, Homo sapiens, UniProt P00734)
# Technique: aptamer microarray, sandwich
# Form: DNA with 2'F-ANA
# Medium: in vitro
# Tested at: 200 nM
# Notes: whole 15-mer aptamer, many near background
# Together with: Cy3 exosite-II aptamer, 400 nM
# Direction: higher = stronger binding
# Strand: GGTTGGTGTGGTTGG
Modification,mean fluorescence intensity [a.u.]
2'F-ANA at 2 5 6 11 13,55.2
2'F-ANA at 1 2 3 4 7 8 9 10 13,55.3
2'F-ANA at 3 5 8 9,138
2'F-ANA at 3 7 9 10 11 12 13 14 15,428
2'F-ANA at 1 3 6 9 10 11 12 15,94.7
2'F-ANA at 4 6 7 8 10,102
2'F-ANA at 3 4 6 9 11 13 14 15,212
2'F-ANA at 3 6 7 10 11 13 14 15,327
2'F-ANA at 2 10 11 14 15,74.5
2'F-ANA at 1 2 5 10 11 12 14 15,50
2'F-ANA at 3 4 6 9 10 11 12 14 15,163
2'F-ANA at 7 8 9 11 13 14,204
2'F-ANA at 1 4 7 8 10 12 14,75.2
2'F-ANA at 2 7 8 9 10 11 13 14 15,77.8
2'F-ANA at 1 3 4 7 8 9 11 13,149
2'F-ANA at 3 6 8 9 15,822
2'F-ANA at 1 4 5 7 10 14 15,58.7
2'F-ANA at 2 3 10 11 12 15,673
2'F-ANA at 1 3 5 6 7 9 11 12 15,91.9
2'F-ANA at 4 7 8 12 13 14,116

# Set 5
# Target: Histone acetyltransferase KAT6A, winged helix 1, GST fusion (KAT6A, Homo sapiens, UniProt Q92794, residues 1-85)
# Technique: protein binding microarray
# Form: double-stranded DNA, one strand shown
# Medium: in vitro
# Tested at: not given
# Notes: 8-mer, flanks averaged, mean of 2 arrays, mostly near background
# Reference: not given
# Direction: higher = stronger binding
# Target sequence (chain): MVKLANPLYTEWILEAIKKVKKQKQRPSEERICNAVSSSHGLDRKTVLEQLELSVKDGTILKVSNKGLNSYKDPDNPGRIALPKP
Strand,E-score
TCAGCGCA,0.145
CGTGCCGA,0.31
AACAGAGT,-0.141
CTAGATTA,-0.0408
ATACACGG,0.152
GGACATGA,0.0932
GTTCTTCA,-0.0786
AGGCAGAC,-0.152
GCTGTATA,-0.165
CACAACGA,0.00156
TCATTGCA,-0.236
CCACGAGG,-0.159
ACAGTCCA,-0.243
GCTGCCGA,0.235
TCTATTCA,-0.135
ATGGGAAA,-0.238
TACATACA,-0.0783
AAGCAGGT,-0.013
CAGATCTA,-0.11
CCAGTCTC,-0.188
ACGAGTCT,-0.161
CTTTTCGC,0.0796
ACATTAAC,-0.0938

# Set 6
# Target: RNA binding protein fox-1 homolog 2, RRM domain, GST-SBP tag (RBFOX2, Homo sapiens, UniProt O43251-10, residues 100-194)
# Technique: RNA Bind-n-Seq
# Form: RNA
# Medium: in vitro
# Tested at: 365 nM
# Notes: natural RNA segment, single round, ends assumed
# Reference: no-protein control
# Direction: higher = stronger binding
# All sequences stand within: GGGAGUUCUACAGUCCGACGAUC … UGGAAUUCUCGGGUGCCAA
# Target sequence (chain): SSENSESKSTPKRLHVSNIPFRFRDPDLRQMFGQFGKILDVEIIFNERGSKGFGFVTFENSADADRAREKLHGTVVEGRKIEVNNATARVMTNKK
Strand,RBNS enrichment (R)
UGUUUUGAAUCUAUAGAUGAGUCAAGGAAGAACUGCCAUCUUAACAGUAUUGGGUCUUCCGAUUUAUAAACAUGGAAUGCCUCUCCAUUUAUUUUGAUCUUUAAUUUCUC,2.86
CUGCCCUCCCUGACCCUAUAGCCCCAGGCCUCAUGGGGGGUAUGUGGGGAAGGGAUGGGGUAUCCCCAUGGAUGCUGGGAUGAGGACAGAGGAAGACCUGAUGGGGUCUC,0.426
UGUAUGCACAGAGCAGACAGACUAAUGGAUCUCUGUUUUCUGCCAGUCAUCAGUGUGCCCUUGAAGCUAAGAGGGGAUUCCAGCCCAGGAAACGUCCCUAGGUAGGCUUG,0.769
UGUAGUGGUCAAAGGAGCUCUGAUUGAGCUGGCAGGCCAGGUUUUGUAAAGAGCAAAAUUACUUUCAGGUCCCUUGUUGAGGGAACAGGUCAGCGUUAUCCUGCCAGACA,0.226
CCCUUUCUCUUCACUGUCAUGGUGCGAGAAAAGCAUGCCAUGUCUACGAGUAGGAUCUCUUCACGGAGGACCUGCAGCUUCAUCUUCUGGAUUGGAGAUUAUUCUUGGUU,1.6
UGGGUAAUGAGCAAAACCGAAAGCUCGGUGUGACUCAGUUUCCUCACUCCCAUUUUGCUUUAAUUUCACUUCCUUCACCAAUUUUCCGAUUGCAUUUAUUAAGCAUCUUU,2.02
GCAGGCCAGAGGGUCAGCUUGUGUUUUAUUUUCUGAUUUCUCCUGCAUGCUUUCUGGAGAUGAGGAUUUUUUGUCAGGUAGCUAGGAGAGCACUGCCACCUUGUGUCCAU,26
CAUAAUAGCAUCUGUAAAAGUACAUCUUACACAUUAUAUAGAGGGUUCUUGUUUGAAAUUUUCAGUUCUCUUUAUCUUCCCAGUACCUCUUGGUCCUCAUAAUGGGCAAA,0.605
AUAUUUGGUCAUAAACCAGAAAUUAAAGAAAGAGGAUUAAGCUUUUUUGACUGAAAGUACUAAAAGUCAGCUUUACUAGUGCCAAACCUUUAAAUUUUCAAAAGAAAAUU,0.456
GUUGGACAUGGAUUGACUGGGAAAAGGCCUGGGUCCAUUGGAGUAAAGAUAACCUAGUCGAUUGAAUUGGCCAUGGGAAGUUAGGUCACAGUCUUAUAAACAAAGUAAAU,1.81
GAAUCUUCGGUUCUCGAGGAAGUGUUGACAGUGUGAUGCUAAUGUCUGCUUUUCUUGGCGUUGGGUAGAAGCAGGACAUCUGUGUGUAUGUGCGUAUUUAAAUUAGAUUA,4
AGGCAAUUUUCGAGGUUUUUAUUUGUUCGGUAUUGUUUUUUUACACUGUGGUACAUAUAAGCAACUUUAAUAGGUGAUAAAUGUACAGUAGUUAGAUUUCACCUGCAUAU,0.571

# A few entries again (set 2):
Strand,log fluorescence
TCACTTCTCCATTTTTCACTGTGCTAG,1.46 z-score
GACGCACTGCTTATCCTGACGTGCTAG,-0.112 z-score
TTAGGTTCCCGTTTCCTTTAGTGCTAG,4.88 z-score
GACGCTTTCAGTTTCGAGACGTGCTAG,4.72 z-score
TTAGGTTTCCTTTTCCTTAAGTGCTAG,7.64 z-score
CTTTCTCCCAAGTCTTGTTTTGTGCTA,3.32 z-score
TTAGATCTGGGGTATCGATTAGTGCTA,0.339 z-score
GACGATATCAGCCTGGAGACGTGCTAG,-0.638 z-score
TCAGATGCCTTTCTCTTACTGTGCTAG,0.322 z-score
TTAGGTCTAGGTCTCGGTTAGTGCTAG,1.07 z-score
TCAGATTTCAGACTGGATTAGTGCTAG,0.367 z-score
